Experimental data pooled from the literature.
A part holds a random share of what one study measured. Values joined by “and” are separate records of one study, mostly repeats; a detail may differ.
Sequence of UniProt P45983 (whole entry, looked up): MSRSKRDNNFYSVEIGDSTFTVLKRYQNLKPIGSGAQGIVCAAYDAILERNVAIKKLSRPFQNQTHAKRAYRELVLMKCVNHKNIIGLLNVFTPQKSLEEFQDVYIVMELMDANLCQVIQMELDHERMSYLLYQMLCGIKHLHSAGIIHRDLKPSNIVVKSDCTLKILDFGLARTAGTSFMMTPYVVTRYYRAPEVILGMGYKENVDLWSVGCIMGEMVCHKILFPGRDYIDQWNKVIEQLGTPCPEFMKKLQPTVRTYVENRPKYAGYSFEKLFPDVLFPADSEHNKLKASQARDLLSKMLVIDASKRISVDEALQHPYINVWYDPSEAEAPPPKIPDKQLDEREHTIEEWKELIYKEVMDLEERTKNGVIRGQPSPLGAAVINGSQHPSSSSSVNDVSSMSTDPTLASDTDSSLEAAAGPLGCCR
Sequence of UniProt Q07002 (whole entry, looked up): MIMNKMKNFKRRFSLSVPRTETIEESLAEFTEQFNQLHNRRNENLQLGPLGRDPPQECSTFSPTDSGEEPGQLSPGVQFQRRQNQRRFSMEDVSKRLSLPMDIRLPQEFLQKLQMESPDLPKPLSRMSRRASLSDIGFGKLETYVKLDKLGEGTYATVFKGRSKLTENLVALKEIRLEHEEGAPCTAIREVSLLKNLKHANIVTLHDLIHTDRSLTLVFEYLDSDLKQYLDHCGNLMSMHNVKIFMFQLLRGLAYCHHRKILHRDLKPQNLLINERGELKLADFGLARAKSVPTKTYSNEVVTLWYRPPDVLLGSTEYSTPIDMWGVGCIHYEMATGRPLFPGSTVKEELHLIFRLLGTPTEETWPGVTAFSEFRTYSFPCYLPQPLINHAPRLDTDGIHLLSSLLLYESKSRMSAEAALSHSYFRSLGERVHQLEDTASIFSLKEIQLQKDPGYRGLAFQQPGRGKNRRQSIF
Sequence of UniProt P42685 (whole entry, looked up): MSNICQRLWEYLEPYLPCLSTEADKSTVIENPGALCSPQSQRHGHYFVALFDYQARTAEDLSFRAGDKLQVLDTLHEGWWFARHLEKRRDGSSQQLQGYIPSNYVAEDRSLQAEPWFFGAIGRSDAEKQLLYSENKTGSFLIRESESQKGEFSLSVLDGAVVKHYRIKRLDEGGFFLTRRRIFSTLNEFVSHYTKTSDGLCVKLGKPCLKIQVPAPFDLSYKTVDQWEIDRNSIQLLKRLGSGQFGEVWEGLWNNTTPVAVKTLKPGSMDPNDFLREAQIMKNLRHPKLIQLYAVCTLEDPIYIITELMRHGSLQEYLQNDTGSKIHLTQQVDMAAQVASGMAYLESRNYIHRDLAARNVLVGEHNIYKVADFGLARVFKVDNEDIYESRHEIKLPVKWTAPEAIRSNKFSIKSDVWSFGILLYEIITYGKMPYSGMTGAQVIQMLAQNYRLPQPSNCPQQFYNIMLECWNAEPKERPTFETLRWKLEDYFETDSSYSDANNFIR
Sequence of UniProt O96017 (whole entry, looked up): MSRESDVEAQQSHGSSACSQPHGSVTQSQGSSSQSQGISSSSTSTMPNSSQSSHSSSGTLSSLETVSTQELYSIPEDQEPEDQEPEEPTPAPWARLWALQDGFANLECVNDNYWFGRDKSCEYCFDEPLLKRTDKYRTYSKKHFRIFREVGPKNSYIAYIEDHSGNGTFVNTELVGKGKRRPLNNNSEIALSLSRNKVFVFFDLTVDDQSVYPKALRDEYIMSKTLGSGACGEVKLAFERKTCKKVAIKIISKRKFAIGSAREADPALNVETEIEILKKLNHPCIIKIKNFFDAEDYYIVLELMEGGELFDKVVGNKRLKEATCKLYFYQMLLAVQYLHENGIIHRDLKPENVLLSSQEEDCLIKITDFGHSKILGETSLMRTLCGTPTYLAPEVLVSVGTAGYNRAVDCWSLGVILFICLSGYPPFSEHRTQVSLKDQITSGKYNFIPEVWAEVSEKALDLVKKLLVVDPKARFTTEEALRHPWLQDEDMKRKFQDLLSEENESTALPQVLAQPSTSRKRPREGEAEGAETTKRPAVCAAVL
Sequence of UniProt Q9UEE5 (whole entry, looked up): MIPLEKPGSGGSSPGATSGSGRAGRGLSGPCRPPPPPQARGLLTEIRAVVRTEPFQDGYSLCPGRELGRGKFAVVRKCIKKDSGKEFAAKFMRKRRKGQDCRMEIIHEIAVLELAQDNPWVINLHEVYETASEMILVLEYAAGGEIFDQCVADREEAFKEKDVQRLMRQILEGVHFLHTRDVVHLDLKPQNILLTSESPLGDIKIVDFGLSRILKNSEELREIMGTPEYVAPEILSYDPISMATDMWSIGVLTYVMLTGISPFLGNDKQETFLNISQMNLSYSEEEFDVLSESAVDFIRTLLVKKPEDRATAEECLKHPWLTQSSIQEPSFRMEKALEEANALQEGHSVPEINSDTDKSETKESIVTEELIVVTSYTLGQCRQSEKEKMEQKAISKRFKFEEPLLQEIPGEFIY
Sequence of UniProt Q9H2G2 (whole entry, looked up): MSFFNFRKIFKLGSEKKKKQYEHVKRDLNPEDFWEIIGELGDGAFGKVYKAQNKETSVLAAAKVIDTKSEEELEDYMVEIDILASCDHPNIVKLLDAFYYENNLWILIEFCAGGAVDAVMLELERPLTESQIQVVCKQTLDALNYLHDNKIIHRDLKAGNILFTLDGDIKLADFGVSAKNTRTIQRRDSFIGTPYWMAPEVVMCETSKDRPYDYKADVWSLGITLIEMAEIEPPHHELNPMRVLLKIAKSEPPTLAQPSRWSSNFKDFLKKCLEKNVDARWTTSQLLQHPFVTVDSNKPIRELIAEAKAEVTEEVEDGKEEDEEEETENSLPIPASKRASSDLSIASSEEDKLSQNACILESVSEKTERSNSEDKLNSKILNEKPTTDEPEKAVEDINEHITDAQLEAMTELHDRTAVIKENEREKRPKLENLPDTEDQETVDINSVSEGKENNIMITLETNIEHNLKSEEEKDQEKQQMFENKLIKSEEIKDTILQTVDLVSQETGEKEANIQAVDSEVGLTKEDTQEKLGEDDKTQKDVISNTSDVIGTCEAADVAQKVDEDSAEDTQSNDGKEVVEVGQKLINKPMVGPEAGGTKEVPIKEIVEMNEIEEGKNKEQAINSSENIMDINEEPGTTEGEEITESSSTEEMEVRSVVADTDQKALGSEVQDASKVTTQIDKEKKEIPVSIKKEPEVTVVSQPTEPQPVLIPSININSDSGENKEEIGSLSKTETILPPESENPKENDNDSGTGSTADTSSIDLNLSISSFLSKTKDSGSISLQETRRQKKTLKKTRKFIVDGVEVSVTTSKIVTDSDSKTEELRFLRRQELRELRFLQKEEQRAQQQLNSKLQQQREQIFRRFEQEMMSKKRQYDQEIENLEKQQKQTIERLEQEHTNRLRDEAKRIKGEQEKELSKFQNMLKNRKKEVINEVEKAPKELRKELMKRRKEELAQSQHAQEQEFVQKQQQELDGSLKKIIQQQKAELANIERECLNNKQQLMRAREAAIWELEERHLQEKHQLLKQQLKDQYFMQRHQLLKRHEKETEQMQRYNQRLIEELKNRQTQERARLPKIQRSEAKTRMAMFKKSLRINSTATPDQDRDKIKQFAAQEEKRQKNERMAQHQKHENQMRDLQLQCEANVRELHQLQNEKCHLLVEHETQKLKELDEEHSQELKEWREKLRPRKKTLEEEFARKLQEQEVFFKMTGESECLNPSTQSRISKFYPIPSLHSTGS
Sequence of UniProt Q9UK32 (whole entry, looked up): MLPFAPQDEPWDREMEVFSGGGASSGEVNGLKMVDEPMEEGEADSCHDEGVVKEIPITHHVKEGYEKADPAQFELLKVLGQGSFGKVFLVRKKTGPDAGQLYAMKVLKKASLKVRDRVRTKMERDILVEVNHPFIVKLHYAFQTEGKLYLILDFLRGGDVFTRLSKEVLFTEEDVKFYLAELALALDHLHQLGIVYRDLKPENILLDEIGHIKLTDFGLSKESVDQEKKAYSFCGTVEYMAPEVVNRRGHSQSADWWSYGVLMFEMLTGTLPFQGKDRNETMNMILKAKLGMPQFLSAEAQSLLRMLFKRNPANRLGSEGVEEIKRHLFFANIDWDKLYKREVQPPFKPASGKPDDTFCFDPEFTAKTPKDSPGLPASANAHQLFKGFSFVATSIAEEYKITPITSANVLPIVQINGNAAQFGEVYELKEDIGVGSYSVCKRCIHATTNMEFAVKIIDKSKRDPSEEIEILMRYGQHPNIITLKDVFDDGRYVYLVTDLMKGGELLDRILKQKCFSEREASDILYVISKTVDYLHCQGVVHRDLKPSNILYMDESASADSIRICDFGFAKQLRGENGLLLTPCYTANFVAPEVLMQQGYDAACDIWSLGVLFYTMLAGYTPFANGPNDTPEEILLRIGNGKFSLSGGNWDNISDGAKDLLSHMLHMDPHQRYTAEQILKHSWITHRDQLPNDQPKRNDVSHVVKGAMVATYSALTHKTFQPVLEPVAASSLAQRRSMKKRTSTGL
Sequence of UniProt Q8TBX8 (whole entry, looked up): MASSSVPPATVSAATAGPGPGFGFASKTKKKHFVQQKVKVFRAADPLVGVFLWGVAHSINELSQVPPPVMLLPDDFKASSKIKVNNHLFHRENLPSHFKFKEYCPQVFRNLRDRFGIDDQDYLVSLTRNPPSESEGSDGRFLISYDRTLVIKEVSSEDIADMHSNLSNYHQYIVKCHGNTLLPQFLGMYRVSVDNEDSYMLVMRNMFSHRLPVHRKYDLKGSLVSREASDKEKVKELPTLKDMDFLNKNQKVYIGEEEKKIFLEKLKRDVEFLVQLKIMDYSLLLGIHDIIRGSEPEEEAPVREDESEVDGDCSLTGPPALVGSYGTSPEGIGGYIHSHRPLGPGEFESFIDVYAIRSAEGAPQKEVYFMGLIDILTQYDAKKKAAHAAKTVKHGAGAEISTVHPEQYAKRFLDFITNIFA

Set 1
Target: Histone acetyltransferase KAT6A, winged helix 1, GST fusion (KAT6A, Homo sapiens, UniProt Q92794, residues 1-85)
Method: protein binding microarray
Form: double-stranded DNA, one strand shown
Sample: in vitro
Concentration: not given
Notes: 8-mer, flanks averaged, mean of 2 arrays, mostly near background
Relative to: not given
Reading: higher = stronger binding
Construct (chain): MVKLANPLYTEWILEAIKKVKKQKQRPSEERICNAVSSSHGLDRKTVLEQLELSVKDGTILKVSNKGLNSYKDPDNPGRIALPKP
Strand | E-score
GTTCGTAA | -0.104
GTAGGGAA | -0.0528
CCTGTGTC | -0.129
GATGCCTA | -0.185
CAGGCGGC | 0.304
CCCCCAGG | -0.181
ATCTCTGA | -0.152
CCTCACGC | 0.0927

Set 2
Compound: CO[C@H]1CC[C@H](CNc2ccc(S(=O)(=O)NC(=O)c3ccc(N4CCN(CC5=C(c6ccc(Cl)cc6)CC(C)(C)CC5)CC4)cc3Oc3cnc4[nH]ccc4c3)cc2[N+](=O)[O-])CC1
Observed: cell-free assay
Method: competition with immobilised ligand
Concentration: 1 µM
target | remaining binding [%]
STK17A (Homo sapiens, UniProt Q9UEE5) | 88
FRK (Homo sapiens, UniProt P42685) | 100
CHEK2 (Homo sapiens, UniProt O96017) | 89
Ribosomal protein S6 kinase alpha-6, N-terminal kinase domain (RPS6KA6, Homo sapiens, UniProt Q9UK32) | 67
MAPK8 (Homo sapiens, UniProt P45983) | 82
CDK18 (Homo sapiens, UniProt Q07002) | 100
PIP4K2C (Homo sapiens, UniProt Q8TBX8) | 85
SLK (Homo sapiens, UniProt Q9H2G2) | 67

Other studies, line by line
Substance | target or system | assay | test system | setting | scale | measurement | result
MIA3 (Homo sapiens, UniProt Q5JRA6) | MIA2 (Homo sapiens, UniProt Q96PC5) | cross-linking MS |  | hits only |  | interaction screen | cross-linked
COc1cc(C(=O)N2CCC(N3CCN(C)CC3)CC2)ccc1Nc1ncc2c(n1)N(C)c1ccccc1C(=O)N2C | MST4 (human) | probe labelling, KiNativ ADP probe | human PBMC lysate | concentration not given, LYS1 labelled site |  | inhibition | -39.4%
CN(C(=O)c1ccn2ncc(-c3ccc(C(N)=O)cc3)c2c1)c1ccc(C#N)cn1 | Cryptosporidium parvum | time-kill | HCT-8, nanoluciferase-expressing | 0.00102 µM, 8 h | higher = more parasites | parasite luminescence | 107000 RLU and 85100 RLU
EBNA1BP2 (Homo sapiens, UniProt Q99848) | DDX18 (Homo sapiens, UniProt Q9NVP1) | cross-linking MS |  | hits only |  | interaction screen | cross-linked

Repeated from above (set 1):
Strand | E-score
GATGCCTA | -0.185
CAGGCGGC | 0.304
CCCCCAGG | -0.181
